Measurements collected from several papers.
A part holds a random share of what one study measured. Substitutions count along the parent as printed.

Sample 1
Target: Histone acetyltransferase KAT6A, winged helix 1, GST fusion (KAT6A, Homo sapiens, UniProt Q92794, residues 1-85)
Technique: protein binding microarray
Molecule type: double-stranded DNA, one strand shown
Sample: in vitro
Concentration: not given
Setting: 8-mer, flanks averaged, mean of 2 arrays, mostly near background
Reference: not given
Reading: higher = stronger binding
Construct (chain): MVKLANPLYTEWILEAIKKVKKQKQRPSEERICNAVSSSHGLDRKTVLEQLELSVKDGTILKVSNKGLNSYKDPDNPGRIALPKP
For `AAGCTTGC`, the E-score was -0.0645.
`GAGGGCGC` has an E-score of 0.241.
With `AGGTCCGG` the E-score was 0.0781.
With `ATGTGTAG` the E-score was -0.0599.
With `GACATAAC` the E-score was -0.0771.
`CACCCGGG` has an E-score of 0.206.
For `ACAGAAGT`, the E-score was -0.23.
`AACCTAAA` has an E-score of -0.0981.
`ATTAGCGC` gave an E-score of 0.36.
For `GCTTATTA`, the E-score was -0.0171.
The E-score of `CTCTCTAA` is reported as -0.126.
`AAACCATC` gave an E-score of 0.0359.
For `ACGGACAC`, the E-score was 0.103.
With `CTCTTATA` the E-score was 0.0332.

Sample 2
Target: ABI1, truncated, D143A, DHFR fusion (Arabidopsis thaliana)
Technique: DHFR PCA, deep sequencing
Sample: yeast
Setting: methotrexate growth selection, single substitutions
Together with: (+)-ABA 0 µM
Reference: wild-type fitted maximum
Reading: higher = stronger binding
Starting sequence: PYL1, truncated, DHFR fusion (Arabidopsis thaliana); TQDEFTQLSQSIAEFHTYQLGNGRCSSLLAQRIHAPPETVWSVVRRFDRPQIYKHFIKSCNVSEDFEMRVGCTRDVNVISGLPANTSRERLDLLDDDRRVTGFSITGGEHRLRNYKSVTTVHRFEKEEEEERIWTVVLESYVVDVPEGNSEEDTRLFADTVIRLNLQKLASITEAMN; partner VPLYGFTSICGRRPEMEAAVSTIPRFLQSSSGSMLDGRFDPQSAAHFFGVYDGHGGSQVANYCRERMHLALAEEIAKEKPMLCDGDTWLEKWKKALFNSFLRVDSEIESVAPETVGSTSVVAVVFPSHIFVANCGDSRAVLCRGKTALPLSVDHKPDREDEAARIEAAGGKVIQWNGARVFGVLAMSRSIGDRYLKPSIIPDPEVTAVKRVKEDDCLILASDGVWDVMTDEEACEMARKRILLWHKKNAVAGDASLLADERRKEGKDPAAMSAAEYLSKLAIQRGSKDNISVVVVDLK
`R32S` — result for “relative binding score”: 7.28%.
For `S87W`, “relative binding score” read 30.1%.
For `V78D`, “relative binding score” read -0.0577%.
`V40N` — result for “relative binding score”: -5.66%.
Under “relative binding score”, `S59F` is recorded as 3.9%.
`Q7R` — result for “relative binding score”: 14.3%.
Under “relative binding score”, `V100S` is recorded as -2.26%.
Under “relative binding score”, `A30H` is recorded as 6.64%.
Under “relative binding score”, `E147F` is recorded as 8.05%.
`H110Y` — result for “relative binding score”: 15.2%.
For `N61M`, “relative binding score” read 23.6%.
For `H16G`, “relative binding score” read 0.396%.
`R49Q` — result for “relative binding score”: 45.5%.
Under “relative binding score”, `L82N` is recorded as 8.18%.
`V136M`: “relative binding score” 11.8%.
`E64A` — result for “relative binding score”: 31.2%.
For `E14T`, “relative binding score” read 5.01%.
For `G107A`, “relative binding score” read 21.2%.

Sample 3
Target: CCND1, cyclin fold, Cln2 fusion (human)
Technique: yeast growth competition, sequencing
Sample: yeast
Setting: weak parent motif
Reference: not given
Reading: higher = stronger binding
Starting sequence: SAMHD1 docking peptide (human); ASKSRVQLFKDDP
For `AVKSRVQLFKDDP [S2V]`, “normalised enrichment score” read 0.627.
`ASKSRVQLFKDNP [D12N]` — result for “normalised enrichment score”: 0.27.
`ASKHRVQLFKDDP [S4H]`: “normalised enrichment score” 0.633.
For `ASKSRVQLFWDDP [K10W]`, “normalised enrichment score” read 0.534.
`AGKSRVQLFKDDP [S2G]` — result for “normalised enrichment score”: 0.119.
Under “normalised enrichment score”, `ASKSRVQQFKDDP [L8Q]` is recorded as 0.0437.
Under “normalised enrichment score”, `ASKSRVQLFKDMP [D12M]` is recorded as 0.113.
For `ASKSRVQLEKDDP [F9E]`, “normalised enrichment score” read 0.0885.
`ASKTRVQLFKDDP [S4T]` — result for “normalised enrichment score”: 1.39.
For `ASKSRVQLFSDDP [K10S]`, “normalised enrichment score” read 0.614.
For `ASKSRVALFKDDP [Q7A]`, “normalised enrichment score” read -0.128.
For `ASKSRVQLFKDIP [D12I]`, “normalised enrichment score” read 0.405.
`ASKSRSQLFKDDP [V6S]` — result for “normalised enrichment score”: -0.466.

Sample 4
Target: Hepatocyte nuclear factor 3-alpha (Foxa1, Mus musculus, UniProt P35582, residues 1-468, full length assumed)
Technique: EMSA with sequencing
Molecule type: double-stranded DNA, one strand shown
Sample: in vitro
Concentration: 10 and 20 nM
Setting: whole designed probe, mean of two concentrations, ends assumed
Reference: negative control set to 0
Reading: higher = stronger binding
Target sequence (chain): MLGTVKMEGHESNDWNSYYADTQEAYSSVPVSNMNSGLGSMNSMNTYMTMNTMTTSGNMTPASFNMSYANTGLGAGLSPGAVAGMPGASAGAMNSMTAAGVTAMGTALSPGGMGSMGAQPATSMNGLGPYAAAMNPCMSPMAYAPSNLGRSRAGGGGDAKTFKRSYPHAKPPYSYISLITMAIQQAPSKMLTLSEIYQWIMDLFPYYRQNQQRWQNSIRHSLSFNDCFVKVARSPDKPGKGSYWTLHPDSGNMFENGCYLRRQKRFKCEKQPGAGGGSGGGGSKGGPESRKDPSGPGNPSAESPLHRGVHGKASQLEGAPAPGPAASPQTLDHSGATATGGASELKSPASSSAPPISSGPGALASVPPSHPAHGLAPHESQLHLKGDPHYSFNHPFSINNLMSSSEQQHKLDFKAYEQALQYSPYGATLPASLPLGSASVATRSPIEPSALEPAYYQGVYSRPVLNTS
`GTGAGCGGTGCCCATTGATGGGGAACAGCAGGAAACTCTCCCACCCCTTTTTCCTCTCTCTTTCAAAGCAATTTGTTTCAGTATTTTAGCATACAAAAAAATAGAACCATTTTCTTCAATGTAATCTGAGATCTGCAGGGAAATAAGAGCGTTAAAAAAGAATTAGCATTTGTTTGGTGGTGAAGCTGCTTTTGTTTGTATCAGAAAGCTCTGCATGTTTTTCACTGGGATCGTGGGGAC`: “normalised bound fraction” -0.0136 ratio.
For `GTGAGCGGTGCCCATTGATGGGGAACCTCCTATTTGTTCTGTTTTTCTGAAAAACCCTAACATGTAACCAAATTACCCCTTTCTTCACACATCATTCTTCCAATCATGCTTTCTTTAAAATAAACAGCTAAATGTTTCTTCCTTTTAAGAAAGGTCTGTGTGCTACAGATTACCCTGCAAATGTTCTTTGTGACTATGTAGGAAAGATCAGGCACATCCTTTCACTGGGATCGTGGGGAC`, “normalised bound fraction” read 0.104 ratio.
`GTGAGCGGTGCCCATTGATGGGGAACCTTCTAGCCTCCAGAGCTATAGGACTATGAATTAGTATGGTTTTAAGTTACTAGGTTTGTACTAATTTGTCACAGCAGCAATAGGAAACTAAAGCAATCTCCAGACCTAAGCTTCCTCCTGCCTCAGGTGGGATAATTCAGGCATGATGTGCATGGTTTCAGTGGGTTGGAGCCTCTGCTGCCCACTGCAGTATTTCACTGGGATCGTGGGGAC`: “normalised bound fraction” -0.0685 ratio.
`GTGAGCGGTGCCCATTGATGGGGAACCATGTACAAACAAAATATGGGTTGTGTAATTTCAGTAATTCCATGTACAAGTTAAACACTCTGAAAATTGCATTTAAAATGTCATTGCACAATGTAATCTTGAATGCTAACAATCTTTTTTTTTTTTCCTGAGACGGAGTCTTGCTCTATCGCCCAGGCTGGAGTGCAGCGGCACAATCTCTGCTTACTGCCATTTCACTGGGATCGTGGGGAC`: “normalised bound fraction” 0.264 ratio.

Sample 5
Target: Fragile X messenger ribonucleoprotein 1, C-terminal low-complexity region (Fmr1, Mus musculus, UniProt P35922)
Technique: RNA Bind-n-Seq
Molecule type: RNA
Sample: in vitro
Concentration: 200 nM
Setting: whole 134-nt RNA, ends assumed
Together with: 150 mM LiCl
Reference: input library
Reading: higher = stronger binding
Library: 7-deaza-guanosine replaces G
The log2 enrichment of `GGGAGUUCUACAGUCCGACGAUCAGUCCUGUGCUACACAUCGUAUGUACCGAAUCGGUUUUUUUGGUUUUUGGUUUUUGGAAAGUAUUAUGUUACGCCGUUCGGAUCUGCACUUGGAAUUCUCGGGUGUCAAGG` is reported as -2.46.
`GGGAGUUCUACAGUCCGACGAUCUGGGAGGUGGAUUUUGUUUAUUUUUUUAGCUCAUUUCCAGGGGUGGGAAUUUUUUUUUAAUAUGUGUCUUGAAUAAAGUUGUUUUUGAAAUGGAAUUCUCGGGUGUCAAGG` gave a log2 enrichment of 0.194.
`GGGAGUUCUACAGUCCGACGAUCAAGUCCUGUGCUACACAUCGUAUGUACCGAAUCGGUUUUGGGGUUUUGGUUUUGGGGAAAGUAUUAUGUUACGCCGUUCGGAUCUGCACUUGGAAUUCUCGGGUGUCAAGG` has a log2 enrichment of -1.04.
`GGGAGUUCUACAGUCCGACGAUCUCAAGUCCUGUGCUACACAUCGUAUGUACCGAAUCGGCCGGGGCCGGGGCCGGGGAAAGUAUUAUGUUACGCCGUUCGGAUCUGCACUUCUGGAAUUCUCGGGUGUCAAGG` gave a log2 enrichment of -0.702.
`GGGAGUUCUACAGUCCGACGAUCCCUGUGCUACACAUCGUAUGUACCGAAUCGGAAAAAAAGGAAAAAAAGGGAAAAAAAGGGAAAGUAUUAUGUUACGCCGUUCGGAUCUGCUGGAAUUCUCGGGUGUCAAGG` has a log2 enrichment of -1.1.

Other studies, line by line
Technique: cross-linking MS
`SF3B1 (Homo sapiens, UniProt O75533)`: interaction screen “cross-linked” (DDX46 (Homo sapiens, UniProt Q7L014); hits only).
Under cross-linked residues, `EXOC5 (Homo sapiens, UniProt O00471)` is recorded as “K132 to K60” (EXOC8 (Homo sapiens, UniProt Q8IYI6); cell fractions; together with: DSSO).
Under interaction screen, `MBD3 (Homo sapiens, UniProt O95983)` is recorded as “cross-linked” (GATAD2B (Homo sapiens, UniProt Q8WXI9); hits only).
For `SMC1A (Homo sapiens, UniProt Q14683)`, cross-linked residues read “E1012 to K282” (PDS5B (Homo sapiens, UniProt Q9NTI5); cell fractions; together with: DMTMM).

Some of these lines once more (sample 3):
`AGKSRVQLFKDDP [S2G]` — result for “normalised enrichment score”: 0.119.
Under “normalised enrichment score”, `ASKSRVQQFKDDP [L8Q]` is recorded as 0.0437.
Under “normalised enrichment score”, `ASKSRVQLFKDMP [D12M]` is recorded as 0.113.
For `ASKSRVQLEKDDP [F9E]`, “normalised enrichment score” read 0.0885.
`ASKTRVQLFKDDP [S4T]` — result for “normalised enrichment score”: 1.39.
For `ASKSRVQLFSDDP [K10S]`, “normalised enrichment score” read 0.614.
